Measurements pooled from the literature.
Every numbered part comes from another study and shows a few of its results, in no order.

Set 1
Target: Prothrombin, mature alpha-thrombin (F2, Homo sapiens, UniProt P00734)
Method: aptamer microarray, sandwich
Form: DNA with 2'F-ANA
Medium: in vitro
Tested at: 200 nM
Setting: whole 15-mer aptamer, many near background
With: Cy3 exosite-II aptamer, 400 nM
Direction: higher = stronger binding
Endpoint: mean fluorescence intensity
Strand: GGTTGGTGTGGTTGG
Modification = 2'F-ANA at 1 2 5 6 7 12 13 14; result = 49.1 a.u.
Modification = 2'F-ANA at 1 2 3 4 6 7 8 10 13 14; result = 52.7 a.u.
Modification = 2'F-ANA at 1 2 7 8 10 11 14; result = 48.4 a.u.
Modification = 2'F-ANA at 1 2 3 8 11 12 13 14; result = 90.6 a.u.
Modification = 2'F-ANA at 1 2 6 9; result = 139 a.u.
Modification = 2'F-ANA at 3 5 6 11 12 13; result = 156 a.u.
Modification = 2'F-ANA at 1 2 4 5 7 8 9 12 15; result = 145 a.u.
Modification = 2'F-ANA at 4 5 6 9 10 11 12 14; result = 47.3 a.u.
Modification = 2'F-ANA at 1 2 4 6 11 13 14; result = 45.9 a.u.
Modification = 2'F-ANA at 1 5 7 8 9 10 11 12; result = 63.9 a.u.
Modification = 2'F-ANA at 1 4 5 7 8 10 11 14; result = 56.6 a.u.
Modification = 2'F-ANA at 2 3 4 5 6 9 13 14; result = 48.7 a.u.
Modification = 2'F-ANA at 1 4 5 9 10; result = 48.1 a.u.
Modification = 2'F-ANA at 3 4 9 10 12 13; result = 326 a.u.
Modification = 2'F-ANA at 3 4 7 8 9 10 11 14; result = 198 a.u.
Modification = 2'F-ANA at 1 3 4 6 7 9 10 12 13 15; result = 68 a.u.
Modification = 2'F-ANA at 6 11 12 14; result = 202 a.u.
Modification = 2'F-ANA at 3 4 5 7 8 9 11 12 15; result = 171 a.u.
Modification = 2'F-ANA at 2 5 6 7 8 10 11 12 13 15; result = 49.9 a.u.
Modification = 2'F-ANA at 1 4 5 6 13 15; result = 48.4 a.u.
Modification = 2'F-ANA at 1 2 3 4 6 8 9 10 14; result = 51.9 a.u.
Modification = 2'F-ANA at 3 4 5 8 9 13 14 15; result = 50.8 a.u.
Modification = 2'F-ANA at 1 3 4 7 10 11 13 15; result = 56.7 a.u.
Modification = 2'F-ANA at 2 3 4 5 7 8 9 12 14; result = 55.6 a.u.

Set 2
Target: RNA binding protein fox-1 homolog 2, RRM domain, GST-SBP tag (RBFOX2, Homo sapiens, UniProt O43251-10, residues 100-194)
Method: RNA Bind-n-Seq
Form: RNA
Medium: in vitro
Tested at: 365 nM
Setting: natural RNA segment, single round, ends assumed
Baseline: no-protein control
Direction: higher = stronger binding
Endpoint: RBNS enrichment (R)
All sequences stand within: GGGAGUUCUACAGUCCGACGAUC … UGGAAUUCUCGGGUGCCAA
Target sequence (chain): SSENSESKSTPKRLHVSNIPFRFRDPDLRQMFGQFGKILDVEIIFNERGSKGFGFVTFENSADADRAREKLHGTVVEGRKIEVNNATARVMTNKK
Strand = CCUGCGCUCUGCCACUGUCCGGAAAUUCAUGGUUGGCUACGAAAUGCUUGCUCAGGCUCAGAGGGACCUCACCCCUGAGCAGGCUGCAGAGAGACUAAGGGCACUUCCUG; result = 0.23
Strand = UUUGUAUUUUUGAGUUGGAAAUUAUGAAACUUCACCAUAUUAUGAUCAUACAUAUUUUGAAGAACAGACUGACCAAAGCUCACCUGUUUUUUGUGUUAGGUGCUUUGGCU; result = 1.31
Strand = CCAAGAUGAUUGCCUUAUUGAAUAGGUCACUACUAAGGCCCUUAAGUGUUGAUACCUGCCAUGUGUGGAGACAGUGUAAAUUCUACAUGAGUGUGAAACAAGGCAAGUCU; result = 0.574
Strand = AGCAUGUGAUAAAGAAGCCAGCCUGCAGCAGACUUCACACUUUGAAGACUGUUCCACACCACAGAAAACCAACUUCAUUUUCUACUCAGAAUUUAUACCAAGAGACUCUU; result = 10.5
Strand = GGUGGAGCCUCAAACUAAAACCUUCUUUUAUGGAAAGAAGGCUGUGGCCAAAAGCCCCGUAUCAAACUGCCAUUUCUUCCGGUUUCUGUGGACCUUGUGGCCAGGUGCUC; result = 0.263
Strand = UUCCUUAAACAAAACAGACAGAGUAAGGAAAGGAAGGAGGGUGGCAGCCAGCUGGCUGGACACUCGAGAAAGACGGGGAAGUAAGCUACAGAAAGAUAGUCUUCAAAAAC; result = 0.606
Strand = UACUUUGUGAAUUUGUUUCUUUGAAUUUUCAUUUUUCAUUUAGUUUUCCUUGCAUACAAAUAAGCAUAUAAAAUGGCAACAAACUGCACAUGAUUUCACAAAUAUUAAAA; result = 1.37
Strand = CUGUCAAGAGGCUUGGCUCUUCAAGACUCAGUGUCCACUUUAUCAAAUGUGACCGGUGUAGCUGUAGUUUGUACUUUCCUGGGGACCUUCUGCUGGGGUUUGUGUAAGCU; result = 0.517
Strand = AUUUGAAAACUCUUUAAGUUCAUGUUAUACAAGAUGAUUUACUGUAUUAUACUUUUCCUUUUUUAUAUAAUGUCUAACAAAAAAUACAGCUGCAACAUUUUGAUUCCUGU; result = 0.889
Strand = ACAGAAGCAUCAAGGGAGCCCAGUCUAAACUCCUAGGGUUGGCCGCCCACUUGAUCCAGACCGUACUGAGUGUCAGAUGGAGAGGAUGCUUGGAAAGCUAGGAAGGCUGC; result = 0.779
Strand = CACUUUAUUCCUGCCCACGUGGCUUUUGGCUGAGACCUGUGUAACCUGCUGUCCCUCACUCACCUGUCACCUGUCACCCUACGGGGACCCACUUGUGGCUUCCCACGUGG; result = 0.295
Strand = AAAAUUGCUUUUGCCUUUUUCAUGAAUGUUAAGCAGCAGCAUUGUGAGAUCGAUCUGUCCUGGCAGUUAACACGAUGUGCAACAGUGUGUUAGCAUGGAACAGAACGCUU; result = 0.38

Set 3
Target: RING finger protein unkempt homolog, zinc fingers 1-6, GST-SBP tag (UNK, Homo sapiens, UniProt Q9C0B0, residues 30-357)
Method: RNA Bind-n-Seq
Form: RNA
Medium: in vitro
Tested at: not given
Setting: RNA with constant flanks, human-mouse chimeric sites, ends assumed
Baseline: input RNA pool
Direction: higher = stronger binding
Endpoint: bound/input enrichment
All sequences stand within: GGGAGUUCUACAGUCCGACGAUC … CAACAGAGGAUUGAGCAUCA
Target sequence (chain): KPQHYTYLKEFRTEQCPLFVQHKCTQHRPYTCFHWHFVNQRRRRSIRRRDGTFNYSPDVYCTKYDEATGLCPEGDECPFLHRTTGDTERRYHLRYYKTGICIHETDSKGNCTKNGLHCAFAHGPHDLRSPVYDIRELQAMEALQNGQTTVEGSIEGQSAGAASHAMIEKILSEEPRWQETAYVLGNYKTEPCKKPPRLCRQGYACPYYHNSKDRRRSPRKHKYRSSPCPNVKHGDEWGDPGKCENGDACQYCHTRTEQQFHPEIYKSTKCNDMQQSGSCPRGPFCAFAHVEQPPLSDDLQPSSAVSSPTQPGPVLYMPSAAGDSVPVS
Strand = AAAGCCCAAGUAUUUUGAAAAAACUCGAACAGAUUUGUCAAGGGUAACCAGCUUGGAGUCUAGCAACUUGCCAAUGUGUUUACCAAUCUGGGGGCUUGUUUUUCUUUUCUUCUUUCAAAU; result = 0.273 ratio
Strand = UCAUUUUUCUCUUUUCUUUCUUUCCUUAAAAGCCUAAAGAUUAGACUGGUUGUAAGAAAAACAGAAGCCAUGUUUCGAAGACCUGUGUUACAGGUAUUUCGUCAGUUUGUAAGACAUGAG; result = 0.211 ratio
Strand = CGCGUCCUCUCGCUGCUGCGGAGCCCGAGCUGGGAACCAUUCCGGGACUGGUACCCUCCGCAUAGCCGCCUCUUCGAUCAAGCUUUCGGGGUGCCCCGGUUGCCCGAUGAGUGGUCGCAG; result = 0.123 ratio
Strand = GCUCCUCUUCCGCACUCAGCCUGGGGACACUGGGCUGGGACCAGAAUCCAGCUUUCUUUUAAAACUCUCAGUGUAACUGUAUCCCGUGACAUUUCAUUUUUUUUAAAAGAAAAAAACUUU; result = 0.0949 ratio
Strand = GAUCCACAGUGGUCUGAGGAGCAACUCAUUGCUGCAAAAUUUUGCUUUGCUGGCCUUGUUAUAGGGCAGACUGAAGUGGACAUCAUGAGUCAUGCCACACAAGCUAUUUUUGAAAUUCUG; result = 0.168 ratio
Strand = AAAGAGUGGAUAGAGUGUGCACAUGGAAUCGGUGGGACCCGGGCGAAAAAGGAGUGCAAGAUAGAGUUCGAUGACUUCGAAGAGUGCUUGCUUCGGUACAAAACGAUGAGGCGAAUGCAU; result = 0.328 ratio
Strand = CUGAGGAUACCACUGAAGAGACCUUAAAAGAAUCAUUUGAGGGCUCUGUUCGUGCAAGAAUAGUCACUGAUCGGGAAACUGGUUCUUUCCAAAGGGUUGGUUUUGUAGACUUUAAUAGUG; result = 0.798 ratio
Strand = GAGCGUCUUGCCCGCACUGGGAUCAUCGUGACCACUAGUGAGGCUGUUCUGCUUCAGCUGGUAGCUGACAAAGACCACCCGAAGUUCAAGGAAAUUCAGAACCUAAUUAAGGCGAGUGCC; result = 0.128 ratio
Strand = AAUUUCCUGUCAUACUUUUUAGACAUUCACAUCAGACUUACAGAGCACCUGGCCACAUUCUAGUUUUGUGUUAUUUCUAAGCCUUUUAUAUGAUCAAAUGAGAACACUGCUUAACUAAUG; result = 0.898 ratio
Strand = GGCCUGGACCUUCCUGGGGCUAGUACAAAUAGCGGCAGUGGAGGCUCGAGAGGAAAGUUUGUUAGUGGAGGCAGUGGUAGAGGCCGUAUGUACGCUCCCUUUACUCGAUAGAUGUGUUCU; result = 0.224 ratio
Strand = UAAGUCCUGUGCCAGCACUUCGCUCAUAAAGUUUUAAAUUCUGGACCAAUAGUGUUUGUUUCCUGAUUUUUGUAUUCAAUACUUUGCGUACUAUGUGACUCACUCUUACUGAUAAUAAAA; result = 0.553 ratio

Set 4
Target: Histone acetyltransferase KAT6A, winged helix 1, GST fusion (KAT6A, Homo sapiens, UniProt Q92794, residues 1-85)
Method: protein binding microarray
Form: double-stranded DNA, one strand shown
Medium: in vitro
Tested at: not given
Setting: 8-mer, flanks averaged, mean of 2 arrays, mostly near background
Baseline: not given
Direction: higher = stronger binding
Endpoint: E-score
Residues (chain): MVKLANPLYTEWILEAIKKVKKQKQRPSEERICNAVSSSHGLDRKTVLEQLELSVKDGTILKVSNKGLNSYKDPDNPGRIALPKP
Strand = AGCGTAAA; result = 0.0998
Strand = CCCCACCA; result = -0.0987
Strand = CCACGGCA; result = 0.333
Strand = AGTCTATA; result = -0.0688
Strand = ATTGATGA; result = -0.088
Strand = CCAGGGTA; result = -0.0694
Strand = CAACAATC; result = -0.192
Strand = ATCCACAC; result = -0.309
Strand = GCTAAACA; result = -0.172
Strand = ATAACGGA; result = 0.0801
Strand = CATCGGCA; result = 0.162
Strand = GTAGTAAC; result = 0.0426
Strand = GAGATCCA; result = -0.111
Strand = AGACGTTA; result = -0.112
Strand = TACGATGA; result = -0.0434
Strand = AAAGTGTT; result = -0.0451
Strand = TCCGGTCA; result = 0.0543
Strand = GCCGGACC; result = 0.257
Strand = AATTCTAG; result = -0.275
Strand = ACTCAGGG; result = -0.235
Strand = CGAGCAAC; result = 0.153
Strand = TCTTAGAA; result = -0.138
Strand = AGGCCTAG; result = -0.231
Strand = CTCGAGAA; result = -0.0595
Strand = CGGTAGAG; result = 0.122
